Assay results from different studies.
Every numbered part comes from another study and shows a few of its results, in no order. Positions count from the first letter of the parent shown.

Set 1
Target: tungstate, free oxyanion
Method: microfluidic competitive inhibition
Medium: in vitro, cell-free expressed
Tested at: not given
Setting: derived from inhibition constants, unchanged parent 2230 nM
Reading: lower = stronger binding
Starting sequence: PafA, mature enzyme, eGFP fusion (Elizabethkingia meningoseptica, UniProt Q9KJX5); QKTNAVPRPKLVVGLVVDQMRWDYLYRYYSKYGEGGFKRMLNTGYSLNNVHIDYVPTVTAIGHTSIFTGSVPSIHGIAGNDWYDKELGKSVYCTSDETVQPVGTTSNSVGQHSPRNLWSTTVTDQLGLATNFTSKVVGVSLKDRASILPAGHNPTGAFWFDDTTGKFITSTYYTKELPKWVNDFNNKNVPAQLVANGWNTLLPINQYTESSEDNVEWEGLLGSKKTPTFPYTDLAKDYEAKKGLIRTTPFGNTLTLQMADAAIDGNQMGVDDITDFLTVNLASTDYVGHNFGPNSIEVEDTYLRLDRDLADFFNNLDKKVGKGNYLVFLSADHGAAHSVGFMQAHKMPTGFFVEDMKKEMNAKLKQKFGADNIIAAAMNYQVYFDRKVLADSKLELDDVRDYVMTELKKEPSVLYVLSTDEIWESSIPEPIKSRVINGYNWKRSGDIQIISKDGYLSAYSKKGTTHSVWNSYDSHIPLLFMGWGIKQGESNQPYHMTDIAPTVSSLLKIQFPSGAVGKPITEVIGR
For `L417G`, “oxyanion analog dissociation constant” read 2.53 µM.
`Q192V`: “oxyanion analog dissociation constant” 2.25 µM.
Under “oxyanion analog dissociation constant”, `T226V` is recorded as 2.08 µM.
For `E218V`, “oxyanion analog dissociation constant” read 1.42 µM.
Under “oxyanion analog dissociation constant”, `L256V` is recorded as 2.77 µM.
For `T105V`, “oxyanion analog dissociation constant” read 2.16 µM.
`N372V`: “oxyanion analog dissociation constant” 3 µM.
Under “oxyanion analog dissociation constant”, `S119G` is recorded as 1.51 µM.
Under “oxyanion analog dissociation constant”, `K393G` is recorded as 2.15 µM.
`N186V` — result for “oxyanion analog dissociation constant”: 2.28 µM.
For `K387G`, “oxyanion analog dissociation constant” read 2.17 µM.
`Y238G` — result for “oxyanion analog dissociation constant”: 2.11 µM.
`H345G`: “oxyanion analog dissociation constant” 1.97 µM.
`V139A` — result for “oxyanion analog dissociation constant”: 1.63 µM.
`K408G` — result for “oxyanion analog dissociation constant”: 2.15 µM.
Under “oxyanion analog dissociation constant”, `D371G` is recorded as 1.88 µM.
Under “oxyanion analog dissociation constant”, `G517A` is recorded as 1.15 µM.
Under “oxyanion analog dissociation constant”, `N290V` is recorded as 2.92 µM.
Under “oxyanion analog dissociation constant”, `D161V` is recorded as 1.33 µM.
Under “oxyanion analog dissociation constant”, `P178V` is recorded as 2.11 µM.

Set 2
Target: TAR DNA-binding protein 43, full length, His tag (TARDBP, Homo sapiens, UniProt Q13148, residues 1-414)
Method: RNA Bind-n-Seq
Molecule type: RNA
Medium: in vitro
Tested at: 20 nM
Setting: 6-mer, flanks averaged, single round
With: 150 mM LiCl
Reference: input library
Reading: higher = stronger binding
For `UACGCC`, “6-mer enrichment (R)” read 0.896.
`CCAUGC` — result for “6-mer enrichment (R)”: 0.921.
`GGGCUG`: “6-mer enrichment (R)” 1.19.
`UACCGA`: “6-mer enrichment (R)” 0.832.
`UUCGUA` — result for “6-mer enrichment (R)”: 0.896.
For `CUCUAU`, “6-mer enrichment (R)” read 0.923.
Under “6-mer enrichment (R)”, `GACAAG` is recorded as 0.904.
`CUUUAU` — result for “6-mer enrichment (R)”: 1.07.

Set 3
Target: CCND3, cyclin fold, Cln2 fusion (human)
Method: yeast growth competition, sequencing
Medium: yeast
Setting: weak parent motif
Reference: not given
Reading: higher = stronger binding
Starting sequence: viral docking peptide; TSVRRALFTGGSD; partner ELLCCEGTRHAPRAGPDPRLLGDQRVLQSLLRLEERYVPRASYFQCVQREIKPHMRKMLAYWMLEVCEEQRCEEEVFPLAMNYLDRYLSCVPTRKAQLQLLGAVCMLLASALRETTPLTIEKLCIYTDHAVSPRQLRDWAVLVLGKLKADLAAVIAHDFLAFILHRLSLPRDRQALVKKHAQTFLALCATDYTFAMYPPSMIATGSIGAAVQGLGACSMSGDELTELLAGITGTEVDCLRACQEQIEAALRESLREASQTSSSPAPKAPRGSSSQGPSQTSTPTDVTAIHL
`TSVRAALFTGGSD [R5A]`: “normalised enrichment score” 0.12.
Under “normalised enrichment score”, `TSVRRALMTGGSD [F8M]` is recorded as 0.142.
`TEVRRALFTGGSD [S2E]`: “normalised enrichment score” 0.158.
`TSVRRAWFTGGSD [L7W]`: “normalised enrichment score” 0.372.
For `TSVRRALFTHGSD [G10H]`, “normalised enrichment score” read -0.212.
For `TSVRRALFTGGND [S12N]`, “normalised enrichment score” read 0.0417.
For `TSVRRAEFTGGSD [L7E]`, “normalised enrichment score” read 0.133.
`TSYRRALFTGGSD [V3Y]`: “normalised enrichment score” 0.24.
`TSVRVALFTGGSD [R5V]` — result for “normalised enrichment score”: 0.0336.
`TSVRRALSTGGSD [F8S]`: “normalised enrichment score” 0.257.
Under “normalised enrichment score”, `TSVRRATFTGGSD [L7T]` is recorded as 0.208.
For `TSVRRALYTGGSD [F8Y]`, “normalised enrichment score” read -0.12.
For `TSVRRGLFTGGSD [A6G]`, “normalised enrichment score” read 0.309.
For `TSVQRALFTGGSD [R4Q]`, “normalised enrichment score” read 0.12.
For `TSVRRALFTNGSD [G10N]`, “normalised enrichment score” read 0.254.
`TSPRRALFTGGSD [V3P]` — result for “normalised enrichment score”: -0.0393.
`TSVRRALFTRGSD [G10R]`: “normalised enrichment score” 0.344.
`TSVRCALFTGGSD [R5C]` — result for “normalised enrichment score”: -0.0296.

Set 4
Target: Prothrombin, mature alpha-thrombin (F2, Homo sapiens, UniProt P00734)
Method: aptamer microarray, sandwich
Molecule type: DNA with 2'F-ANA
Medium: in vitro
Tested at: 200 nM
Setting: whole 15-mer aptamer, many near background
With: Cy3 exosite-II aptamer, 400 nM
Reading: higher = stronger binding
Sequence: GGTTGGTGTGGTTGG
Under “mean fluorescence intensity”, `2'F-ANA at 1 3 6 9 13 15` is recorded as 203 a.u.
Under “mean fluorescence intensity”, `2'F-ANA at 1 2 3 6 7 8 9 12 14` is recorded as 91.3 a.u.
`2'F-ANA at 1 4 5 6 9 11 15`: “mean fluorescence intensity” 51.4 a.u.
Under “mean fluorescence intensity”, `2'F-ANA at 2 4 7 8 9 10 12 14` is recorded as 67.1 a.u.
For `2'F-ANA at 1 2 4 5 8 13 15`, “mean fluorescence intensity” read 57.3 a.u.
For `2'F-ANA at 1 2 3 4 5 6 7 8 11 15`, “mean fluorescence intensity” read 57.8 a.u.
For `2'F-ANA at 1 2 3 4 7 10`, “mean fluorescence intensity” read 55.6 a.u.
`2'F-ANA at 1 2 4 6 7 8 9 10 11 12 14` — result for “mean fluorescence intensity”: 196 a.u.

Some of these lines once more (set 1):
Under “oxyanion analog dissociation constant”, `T226V` is recorded as 2.08 µM.
Under “oxyanion analog dissociation constant”, `P178V` is recorded as 2.11 µM.
Under “oxyanion analog dissociation constant”, `S119G` is recorded as 1.51 µM.
`Y238G` — result for “oxyanion analog dissociation constant”: 2.11 µM.
Under “oxyanion analog dissociation constant”, `L256V` is recorded as 2.77 µM.
Under “oxyanion analog dissociation constant”, `N290V` is recorded as 2.92 µM.
Under “oxyanion analog dissociation constant”, `D161V` is recorded as 1.33 µM.
For `T105V`, “oxyanion analog dissociation constant” read 2.16 µM.
